Measurements pooled from the literature.
Numbered parts are unrelated; each lists some results of a single study. ± marks the error that the study gave.
Chain of UniProt P34913 (whole entry, looked up): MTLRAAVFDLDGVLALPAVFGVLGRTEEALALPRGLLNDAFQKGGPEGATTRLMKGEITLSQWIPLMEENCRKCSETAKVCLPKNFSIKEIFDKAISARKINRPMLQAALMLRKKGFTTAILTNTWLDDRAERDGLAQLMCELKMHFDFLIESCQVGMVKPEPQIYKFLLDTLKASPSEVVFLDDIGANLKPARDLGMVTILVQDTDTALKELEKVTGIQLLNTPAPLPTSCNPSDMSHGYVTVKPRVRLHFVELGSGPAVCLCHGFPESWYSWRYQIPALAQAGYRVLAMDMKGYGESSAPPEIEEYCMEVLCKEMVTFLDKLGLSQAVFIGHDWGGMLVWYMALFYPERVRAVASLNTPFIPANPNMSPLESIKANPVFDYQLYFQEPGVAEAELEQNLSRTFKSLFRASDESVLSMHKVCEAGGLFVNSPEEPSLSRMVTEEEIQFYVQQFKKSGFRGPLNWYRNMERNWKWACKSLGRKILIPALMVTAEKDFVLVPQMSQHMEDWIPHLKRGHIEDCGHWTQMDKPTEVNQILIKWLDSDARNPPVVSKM

Block 1
SMILES: Cc1cc(OCc2nnc(SC3CCCC3)n2-c2cccnc2)ccc1-c1ccc(S(C)(=O)=O)cc1
The GI50 was 1230 nM (Malme-3M).
For MCF7: GI50 read 280 nM.
It gave 1130 nM for GI50 (SN12C).

Further values, each from its own experiment
The IC50 of `Cc1ccc(S(=O)(=O)Nc2c(N3CCC(NC(=O)Nc4ccc(C)c(Cl)c4)CC3)c(=O)c2=O)cc1` is reported as 0.4 ± 0.02 nM (EPHX2 (Homo sapiens, UniProt P34913)).
`CC[C@@H]1C(=O)N(C)c2cnc(Nc3ccc(C(=O)NC4CCN(C)CC4)cc3OC)nc2N1C1CCCC1` has a ΔTm of 5.09 ± 0.07 °C (Bromodomain-containing protein 4, BD2 (BRD4, Homo sapiens, UniProt O60885); thermal stabilisation, thermal shift; 10 µM).
For `N#Cc1ccc(-c2csc(CNC(=O)C34CC(CN(C(=O)COCCF)C3)C4)n2)cc1`, the CLint scaled was less than 3.4 mL/min/kg (human, both sexes, liver microsomes; 0.5 µM).
